# Measurements gathered from unrelated publications.
# Lines come from different studies, so protocols differ. Values joined by “and” are separate records of one study, mostly repeats; a detail may differ. Numbers after ± are the reported error.
# Tripartite terminase subunit 3 C-terminal nuclease domain: Tripartite terminase subunit 3, C-terminal nuclease domain (Human betaherpesvirus 5, UniProt P16732)
# UniProt P16732, sequence (whole entry, looked up): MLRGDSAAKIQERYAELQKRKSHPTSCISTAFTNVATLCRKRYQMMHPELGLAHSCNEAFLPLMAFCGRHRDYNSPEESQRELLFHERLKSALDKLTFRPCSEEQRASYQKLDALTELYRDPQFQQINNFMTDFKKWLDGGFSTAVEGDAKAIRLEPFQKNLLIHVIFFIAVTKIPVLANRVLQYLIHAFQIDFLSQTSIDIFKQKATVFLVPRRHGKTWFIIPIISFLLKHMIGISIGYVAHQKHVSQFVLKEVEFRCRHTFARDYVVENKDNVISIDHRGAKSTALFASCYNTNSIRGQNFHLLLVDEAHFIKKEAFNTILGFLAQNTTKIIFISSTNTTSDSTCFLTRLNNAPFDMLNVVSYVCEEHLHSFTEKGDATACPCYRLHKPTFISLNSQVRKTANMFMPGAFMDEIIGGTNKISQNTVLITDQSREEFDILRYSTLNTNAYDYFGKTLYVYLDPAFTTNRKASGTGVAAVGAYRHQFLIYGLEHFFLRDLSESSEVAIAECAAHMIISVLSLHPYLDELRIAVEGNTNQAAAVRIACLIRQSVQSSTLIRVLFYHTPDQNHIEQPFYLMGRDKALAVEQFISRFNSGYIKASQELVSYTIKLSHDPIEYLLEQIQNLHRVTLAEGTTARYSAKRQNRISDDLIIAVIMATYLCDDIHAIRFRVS
# DDB1/DCAF12: DDB1/DCAF12 (Homo sapiens, UniProt Q16531+Q5T6F0)
# UniProt Q16531, sequence (whole entry, looked up): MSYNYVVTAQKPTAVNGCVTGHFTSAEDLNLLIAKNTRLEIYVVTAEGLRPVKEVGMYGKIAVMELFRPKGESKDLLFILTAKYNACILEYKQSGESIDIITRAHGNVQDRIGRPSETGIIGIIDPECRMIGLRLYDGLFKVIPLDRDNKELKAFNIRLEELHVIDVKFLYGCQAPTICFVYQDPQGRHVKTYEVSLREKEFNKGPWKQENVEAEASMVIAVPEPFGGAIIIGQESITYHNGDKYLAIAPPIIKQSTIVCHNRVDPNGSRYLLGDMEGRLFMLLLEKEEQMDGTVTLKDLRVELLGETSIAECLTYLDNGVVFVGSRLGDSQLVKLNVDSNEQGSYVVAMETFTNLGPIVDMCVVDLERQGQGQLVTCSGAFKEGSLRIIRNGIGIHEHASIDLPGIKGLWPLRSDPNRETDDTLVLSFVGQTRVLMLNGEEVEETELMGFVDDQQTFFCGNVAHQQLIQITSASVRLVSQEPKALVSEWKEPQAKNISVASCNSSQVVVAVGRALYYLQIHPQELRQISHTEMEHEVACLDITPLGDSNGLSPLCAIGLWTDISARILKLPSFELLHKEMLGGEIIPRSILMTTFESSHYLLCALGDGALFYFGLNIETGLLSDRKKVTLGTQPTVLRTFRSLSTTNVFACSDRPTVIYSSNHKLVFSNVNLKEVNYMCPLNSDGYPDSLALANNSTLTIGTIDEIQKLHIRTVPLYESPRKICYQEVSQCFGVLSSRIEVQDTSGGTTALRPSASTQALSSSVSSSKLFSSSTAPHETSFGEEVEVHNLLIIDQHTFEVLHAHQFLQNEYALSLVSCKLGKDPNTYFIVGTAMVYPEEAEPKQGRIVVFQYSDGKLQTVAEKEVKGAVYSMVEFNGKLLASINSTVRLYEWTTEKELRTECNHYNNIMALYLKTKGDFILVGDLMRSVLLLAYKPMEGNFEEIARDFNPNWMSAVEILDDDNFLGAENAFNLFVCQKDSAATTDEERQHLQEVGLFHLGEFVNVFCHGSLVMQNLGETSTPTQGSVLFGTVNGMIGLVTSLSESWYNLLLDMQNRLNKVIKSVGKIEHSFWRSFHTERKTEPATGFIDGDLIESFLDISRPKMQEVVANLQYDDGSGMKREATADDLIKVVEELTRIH
# UniProt Q5T6F0, sequence (whole entry, looked up): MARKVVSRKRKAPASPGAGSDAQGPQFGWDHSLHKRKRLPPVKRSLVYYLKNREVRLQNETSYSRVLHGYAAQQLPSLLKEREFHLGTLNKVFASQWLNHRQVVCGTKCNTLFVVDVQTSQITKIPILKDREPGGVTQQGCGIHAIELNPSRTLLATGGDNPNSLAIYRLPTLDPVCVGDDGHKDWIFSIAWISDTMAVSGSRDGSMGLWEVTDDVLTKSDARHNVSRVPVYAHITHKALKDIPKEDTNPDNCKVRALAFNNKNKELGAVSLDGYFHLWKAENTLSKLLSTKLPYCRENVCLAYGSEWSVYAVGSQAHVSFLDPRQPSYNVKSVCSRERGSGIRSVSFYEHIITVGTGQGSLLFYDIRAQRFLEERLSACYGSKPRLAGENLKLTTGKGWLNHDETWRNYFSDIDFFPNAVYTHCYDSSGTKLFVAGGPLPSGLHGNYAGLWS
# Genome polyprotein NS2B-NS3 protease: Genome polyprotein, NS2B-NS3 protease (ZIKV, UniProt A0A024B7W1)
# UniProt P0A7B1, sequence (whole entry, looked up): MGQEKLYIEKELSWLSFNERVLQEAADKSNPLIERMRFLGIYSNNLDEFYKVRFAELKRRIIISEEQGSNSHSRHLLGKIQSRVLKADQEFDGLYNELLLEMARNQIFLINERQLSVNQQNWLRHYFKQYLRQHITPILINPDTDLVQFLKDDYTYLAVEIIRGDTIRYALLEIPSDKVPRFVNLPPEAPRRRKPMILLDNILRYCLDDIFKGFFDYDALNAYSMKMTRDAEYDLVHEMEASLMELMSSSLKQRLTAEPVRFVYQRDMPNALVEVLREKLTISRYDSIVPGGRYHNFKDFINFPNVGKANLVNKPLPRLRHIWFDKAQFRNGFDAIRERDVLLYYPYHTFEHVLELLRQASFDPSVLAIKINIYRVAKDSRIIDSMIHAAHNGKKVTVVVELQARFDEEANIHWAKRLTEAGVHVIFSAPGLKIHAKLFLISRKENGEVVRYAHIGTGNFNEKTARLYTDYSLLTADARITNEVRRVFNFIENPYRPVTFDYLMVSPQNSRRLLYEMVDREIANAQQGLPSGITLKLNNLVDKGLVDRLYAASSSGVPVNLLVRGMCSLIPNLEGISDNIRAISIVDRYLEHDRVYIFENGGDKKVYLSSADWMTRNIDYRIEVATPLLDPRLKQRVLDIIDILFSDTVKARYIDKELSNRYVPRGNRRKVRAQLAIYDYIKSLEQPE
# UniProt O94782, sequence (whole entry, looked up): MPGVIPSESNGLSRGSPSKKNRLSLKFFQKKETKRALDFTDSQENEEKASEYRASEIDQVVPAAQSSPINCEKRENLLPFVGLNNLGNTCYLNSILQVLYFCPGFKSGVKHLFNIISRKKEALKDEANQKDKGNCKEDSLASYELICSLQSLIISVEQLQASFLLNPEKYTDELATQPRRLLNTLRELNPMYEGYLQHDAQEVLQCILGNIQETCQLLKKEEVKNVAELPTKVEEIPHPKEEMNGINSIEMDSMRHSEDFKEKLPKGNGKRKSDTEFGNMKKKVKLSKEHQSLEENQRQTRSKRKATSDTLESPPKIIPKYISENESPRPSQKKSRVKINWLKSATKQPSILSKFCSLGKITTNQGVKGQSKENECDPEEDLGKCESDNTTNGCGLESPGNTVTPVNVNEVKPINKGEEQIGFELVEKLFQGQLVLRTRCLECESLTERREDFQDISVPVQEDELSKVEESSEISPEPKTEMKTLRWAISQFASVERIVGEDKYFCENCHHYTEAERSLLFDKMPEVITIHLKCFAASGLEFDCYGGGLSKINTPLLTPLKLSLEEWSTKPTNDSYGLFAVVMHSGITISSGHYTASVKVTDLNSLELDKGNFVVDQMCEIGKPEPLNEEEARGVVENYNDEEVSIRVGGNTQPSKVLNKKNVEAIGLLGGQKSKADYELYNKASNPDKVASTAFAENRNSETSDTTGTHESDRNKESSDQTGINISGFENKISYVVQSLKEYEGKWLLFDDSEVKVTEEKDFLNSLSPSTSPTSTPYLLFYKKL
# UniProt P04746, sequence (whole entry, looked up): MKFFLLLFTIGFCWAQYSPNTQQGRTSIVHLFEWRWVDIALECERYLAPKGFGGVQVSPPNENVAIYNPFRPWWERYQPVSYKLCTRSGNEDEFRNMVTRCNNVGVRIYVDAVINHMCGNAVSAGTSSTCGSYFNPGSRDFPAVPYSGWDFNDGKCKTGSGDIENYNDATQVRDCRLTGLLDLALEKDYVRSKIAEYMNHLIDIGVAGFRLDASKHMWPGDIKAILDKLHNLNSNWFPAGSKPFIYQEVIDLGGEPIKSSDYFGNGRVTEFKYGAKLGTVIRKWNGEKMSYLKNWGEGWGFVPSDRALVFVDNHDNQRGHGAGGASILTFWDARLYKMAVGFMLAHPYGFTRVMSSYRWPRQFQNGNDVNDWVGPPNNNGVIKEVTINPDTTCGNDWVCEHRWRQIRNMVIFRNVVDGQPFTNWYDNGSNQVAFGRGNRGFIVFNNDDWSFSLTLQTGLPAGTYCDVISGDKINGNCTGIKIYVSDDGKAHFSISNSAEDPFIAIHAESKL
# UniProt Q9JLB5, sequence (whole entry, looked up): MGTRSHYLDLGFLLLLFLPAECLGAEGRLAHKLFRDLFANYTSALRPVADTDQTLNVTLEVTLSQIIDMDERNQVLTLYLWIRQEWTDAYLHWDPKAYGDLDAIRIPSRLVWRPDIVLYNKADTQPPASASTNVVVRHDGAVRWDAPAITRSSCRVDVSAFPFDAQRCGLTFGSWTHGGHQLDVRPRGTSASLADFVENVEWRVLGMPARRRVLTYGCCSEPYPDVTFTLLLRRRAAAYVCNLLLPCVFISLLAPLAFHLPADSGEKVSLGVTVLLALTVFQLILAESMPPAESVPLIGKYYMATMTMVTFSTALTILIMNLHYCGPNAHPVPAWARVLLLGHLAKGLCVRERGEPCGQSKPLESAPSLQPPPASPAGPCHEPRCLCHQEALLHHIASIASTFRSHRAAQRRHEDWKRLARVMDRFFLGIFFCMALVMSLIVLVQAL
# UniProt O60911, sequence (whole entry, looked up): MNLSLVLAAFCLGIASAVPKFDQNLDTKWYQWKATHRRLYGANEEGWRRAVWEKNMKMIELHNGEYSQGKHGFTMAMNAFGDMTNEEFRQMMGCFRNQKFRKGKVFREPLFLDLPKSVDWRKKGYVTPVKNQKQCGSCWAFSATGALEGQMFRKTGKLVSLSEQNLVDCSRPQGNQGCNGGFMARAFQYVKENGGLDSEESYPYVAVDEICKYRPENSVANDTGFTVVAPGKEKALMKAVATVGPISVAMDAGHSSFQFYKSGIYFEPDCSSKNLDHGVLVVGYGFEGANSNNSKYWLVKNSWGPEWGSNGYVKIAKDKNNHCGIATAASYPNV
Structure (SMILES),target or system,test,system,setting,scale,measurement,value
Nc1c2c(nc3c1C(c1cccc([N+](=O)[O-])c1)c1ccc(OS(=O)(=O)c4ccc(F)cc4)cc1O3)CCCC2 (stereo not shown),"Amyloid-beta precursor protein (APP, Homo sapiens, UniProt P05067)","Aβ42 self-aggregation, inhibitor, thioflavin T fluorescence",,,,IC50,4.28 µM
CC(C)[C@@H]1NC(=O)[C@H](Cc2ccccc2)NC(=O)[C@@H]2NC(=O)[C@H](Cc3ccccc3)NC(=O)[C@@H]3CCCN3C(=O)CNC(=O)[C@H](Cc3ccccc3)NC(=O)[C@@H]3CNCCCC[C@@H](C(=O)O)NC(=O)[C@@H]4NC(=O)[C@H](CC(N)=O)NC(=O)CNC(=O)[C@H]([C@@H](O)C(=O)O)NC(=O)[C@H](CSC[C@@H](NC(=O)[C@H](CCC(N)=O)NC(=O)[C@H](CCCCNC(=O)c5ccc(NN)nc5)NC(=O)[C@@H](N)CS[C@H]4C)C(=O)N[C@@H](CS[C@H]2C)C(=O)N3)NC1=O [technetium-99m labelled],,,"rat, saline control, liver","intravenous, 2 h after tracer, tracer 24 h after reperfusion",,tissue uptake,2.1 ± 0.22 %ID/g
O=C(c1ccc(Cl)cc1)N1CCN2C(=O)N(OC(=O)N3CCOc4ccccc43)C(=O)C2C1 (stereo not shown),"sn-1-specific diacylglycerol lipase ABHD11 (ABHD11, Homo sapiens, UniProt Q8NFV4)",MS-based ABPP,SW-620 conditioned medium,"10 µM, 1 h, 37 °C","baseline: compound over DMSO, lower = more inhibition",mean protein ratio,1.11
O=c1[nH]c2cc(-c3ccc(F)cc3)sc2c(=O)n1O,Tripartite terminase subunit 3 C-terminal nuclease domain,"endonuclease activity, inhibitor",,together with: dsDNA substrate,,IC50,0.48 ± 0.17 µM
COc1cc2c(Oc3ccc4[nH]c(C)cc4c3F)ccnc2cc1OCC1(N)CC1,,,paediatric recurrent refractory sarcoma,10 mg,,grade 1 or 2 Myalgia,25%
CC[C@H](C)[C@H](N)C(=O)N[C@@H](CC(C)C)C(=O)N[C@@H](CCCCN)C(=O)N[C@H](C(=O)N[C@@H](CC(=O)O)C(=O)N[C@@H](CC(=O)O)C(=O)N[C@H](C(=O)N[C@@H](CCCNC(=N)N)C(=O)N[C@@H](CCCCN)C(=O)N1CCC[C@H]1C(=O)NCC(=O)N[C@@H](CCC(=O)O)C(=O)N[C@@H](CO)C(=O)N[C@@H](CCC(=O)O)C(=O)N[C@@H](CCC(=O)O)C(=O)O)[C@@H](C)CC)[C@@H](C)CC,DDB1/DCAF12,"binding, TR-FRET competition",,,,IC50,0.614 µM
COc1ccccc1C(=O)NC1CCCN(Cc2cccc(-c3ccc(C)c(Cl)c3)c2)C1 (stereo not shown),Vero-E6,CellTiter-Glo ATP,,"72 h, retest 8-point duplicates","baseline: DMSO 0%, hyamine -100%, more negative, more toxic",maximum response,-12.2%
CC(C)C[C@@H]1NC(=O)[C@H](CC(C)C)NC(=O)[C@H](Cc2c[nH]c3ccccc23)NC(=O)[C@H](CO)NC(=O)[C@H](Cc2c[nH]c3ccccc23)NC(=O)[C@@H]2CCCN2C(=O)[C@H](CC(C)C)NC(=O)[C@H](Cc2c[nH]cn2)NC(=O)[C@@H]2CCCN2C(=O)[C@H](CC(N)=O)NC(=O)[C@H](C)NC(=O)[C@H](Cc2ccc(O)cc2)NC(=O)[C@H](CS)NC(=O)[C@H](CCCCNC(=O)CN2CCN(CC(=O)O)CCN(CC(=O)O)CCN(CC(=O)O)CC2)NC1=O [lutetium-177 labelled],,,"Balb/c mouse, female, 4T1 tumour, liver","intravenous, 3.7 MBq, 1 h",,tissue uptake,20.4 ± 4.82 %ID
O=C1c2ccccc2C(c2ccccc2)C(=O)N1O (stereo not shown),Tripartite terminase subunit 3 C-terminal nuclease domain,"endonuclease activity, inhibitor",,together with: dsDNA substrate,,IC50,19 ± 4.2 µM
CCOC(=O)C1=C(C)NC(C)=C(C(=O)OC)C1c1cccc([N+](=O)[O-])c1 (stereo not shown),"Voltage-dependent L-type calcium channel subunit alpha-1C (Cacna1c, Rattus norvegicus, UniProt P22002)",inhibitor,,"rat, concurrent measurement",,IC50,0.00024 µM
CNC(C)Cc1ccc2n[se]nc2c1 (stereo not shown),"Sodium-dependent noradrenaline transporter (SLC6A2, Homo sapiens, UniProt P23975)",,,,,IC50,22.1 ± 8.6 µM
C#C[C@]1(O)CC[C@H]2[C@@H]3CCc4cc(OC)ccc4[C@H]3CC[C@@]21C,"Glucocorticoid receptor (NR3C1, Homo sapiens, UniProt P04150)",,,,,IC50,0.516 µM
Cc1csc2[nH]c(=O)n(O)c(=O)c12,Tripartite terminase subunit 3 C-terminal nuclease domain,"endonuclease activity, inhibitor",,together with: dsDNA substrate,,IC50,0.38 ± 0.11 µM
CC[C@H](C)[C@H](NC(=O)[C@@H](N)CC(=O)O)C(=O)N[C@@H](CCCNC(=N)N)C(=O)N[C@@H](CCCCN)C(=O)N1CCC[C@H]1C(=O)NCC(=O)N[C@@H](CCC(=O)O)C(=O)N[C@@H](CO)C(=O)N[C@@H](CCC(=O)O)C(=O)N[C@@H](CCC(N)=O)C(=O)O,DDB1/DCAF12,"binding, TR-FRET competition",,,,IC50,17.9 µM
COc1cc(CCC[P+](c2ccccc2)(c2ccccc2)c2ccccc2)c(OC)c2c1OCO2.[I-],T47D,SRB,,,,LC50,> -4 log M
CC[C@H](C)[C@H](NC(=O)[C@H](Cc1ccccc1)NC(=O)[C@H](CCC(=O)O)NC(=O)[C@H](CCCNC(=N)N)NC(=O)[C@H](C)NC(=O)[C@H](C)NC(=O)[C@H](CCC(N)=O)NC(=O)[C@H](CCC(=O)O)NC(=O)[C@H](CCC(=O)O)NC(=O)[C@H](CC(C)C)NC(=O)[C@H](Cc1ccc(O)cc1)NC(=O)[C@H](CO)NC(=O)[C@H](CO)NC(=O)[C@@H](NC(=O)[C@H](CC(=O)O)NC(=O)[C@H](CO)NC(=O)[C@@H](NC(=O)[C@H](Cc1ccccc1)NC(=O)[C@@H](NC(=O)CNC(=O)[C@H](CCC(=O)O)NC(=O)[C@H](C)NC(=O)CCc1c[nH]cn1)[C@@H](C)O)[C@@H](C)O)C(C)C)C(=O)N[C@@H](C)C(=O)N[C@@H](Cc1c[nH]c2ccccc12)C(=O)N[C@@H](CC(C)C)C(=O)N[C@H](C(=O)N[C@@H](CCCNC(=N)N)C(=O)NCC(=O)N[C@@H](CCCNC(=N)N)C(=O)N[C@@H](CCCCNC(=O)COCCOCCNC(=O)COCCOCCNC(=O)CC[C@H](NC(=O)CCCCCCCCCCCCCCCCC(=O)O)C(=O)O)C(=O)NCC(=O)NCC(=O)N[C@@H](CO)C(=O)N[C@@H](CCCCNc1c(NCCCCCN(O)C(=O)CCC(=O)NCCCCCN(O)C(=O)CCC(=O)NCCCCCN(O)C(C)=O)c(=O)c1=O)C(=O)O)C(C)C [zirconium-89 labelled],,,"rat, duodenum content","intravenous, 3 nmol/kg, 24 h",,tissue uptake,0.07 %ID/g
COc1cc(Nc2ncc(F)c(Nc3ccc4c(n3)NC(=O)C(C)(C)O4)n2)cc(OC)c1OC,"Cathepsin L2 (CTSV, Homo sapiens, UniProt O60911)",,,,,IC50,> 10 µM
O=S(=O)(F)Cc1ccccc1,"Pimeloyl-[acyl-carrier protein] methyl ester esterase (bioH, Escherichia coli, UniProt P13001)",inhibitor,,,,IC50,1780 µM
COc1cc2c3cc1Oc1cc(ccc1O)C[C@@H]1c4c(cc(OC)c(O)c4Oc4ccc(cc4)C[C@@H]3N(C)CC2)CC[N+]1(C)C,"Chrnd/Chrna1/Chrne (Mus musculus, UniProt P02716+P04756+P20782)","endplate current peak height, inhibitor, two-electrode voltage clamp",mouse hemidiaphragm,"4 d, -80 mV, AChE intact, myasthenia IgG-treated mice",,IC50,0.073 µM
CCC(C(=O)Nc1cc(NC2CCOCC2)ccc1C)n1cc(Br)cc2nc(SCc3ccc(F)cc3)nc1-2 (stereo not shown),"Ubiquitin carboxyl-terminal hydrolase 1 (USP1, Homo sapiens, UniProt O94782)",enzyme activity,,,,IC50,> 100 µM
COc1cc(C(=O)N2CC[C@@H](O)[C@@H](N)C2)cc2nc(-c3cc4ccccc4n3CC3CC3)n(C)c12,"5-hydroxytryptamine receptor 3A (HTR3A, Homo sapiens, UniProt P46098)","intracellular calcium, antagonist, fluorescence",,,,IC50,1.26 µM
Cc1cc(C)c2sc(NC(=O)c3ccc4c(c3)OCO4)nc2n1,Genome polyprotein NS2B-NS3 protease,inhibitor,,,,IC50,19 ± 2 µM
CC[C@H](C)[C@@H]1NC(=O)[C@@H]2CCCN2C(=O)[C@H](CC(C)C)NC(=O)[C@H](CC(C)C)NC(=O)CNC(=O)[C@@H](NC(=O)[C@@H](NC(=O)[C@H](CC(=O)O)NC(=O)CNC(=O)[C@@H](NC(=O)[C@H](C)NC(=O)CNC(=O)[C@H](CCCCN)NC(=O)[C@H](CC(C)C)NC(=O)[C@H](CC(C)C)NC(=O)[C@H](CCCCN)NC(=O)CNC(=O)[C@@H](NC(=O)[C@@H](N)CC(C)C)C(C)C)C(C)C)C(C)C)CSSC[C@@H](C(=O)O)NC1=O,,"RNA-seq, item: Pilrb1 mRNA","mouse traumatic brain injury, frontal cortex and hippocampus",dose not given,baseline: TBI plus compound vs TBI,log2 fold change,-4.31
Cc1cc(C)c2sc(NC(=O)c3cc4ccccc4o3)nc2n1,Genome polyprotein NS2B-NS3 protease,inhibitor,,,,IC50,0.44 ± 0.11 µM
O=P(O)(O)Oc1cc(OP(=O)(O)O)c(-c2cc(OP(=O)(O)O)c(OP(=O)(O)O)cc2OP(=O)(O)O)cc1OP(=O)(O)O,"Phosphatidylinositol 3,4,5-trisphosphate 5-phosphatase 2 (INPPL1, Homo sapiens, UniProt O15357)","enzyme activity, inhibitor, malachite green phosphate",,"5 min, 30 °C, untagged enzyme, together with: Ins(1,3,4,5)P4 100 µM",,IC50,15.5 ± 2.5 µM
CCN(CC)CCNC(=O)c1ccc(-c2nc(CN3CCc4ccccc43)c(C)o2)cc1,Vero-E6,CellTiter-Glo ATP,,"72 h, retest 8-point duplicates","baseline: DMSO 0%, hyamine -100%, more negative, more toxic",maximum response,-13.2%
COc1ccc2c3c([nH]c2c1)CCN(C)CC3,"Nicotinic acetylcholine receptor alpha9/alpha10 (Rattus norvegicus, UniProt P43144+Q9JLB5)","ACh-evoked current, antagonist, two-electrode voltage clamp",Xenopus laevis oocytes,"holding potential -80 mV, together with: 10 µM acetylcholine",,IC50,1.1 ± 0.1 µM
CC(C)C[C@H](NC(=O)[C@H](C)NC(=O)[C@H](CCC(=O)O)NC(=O)[C@@H](N)C(C)C)C(=O)N[C@@H](CC(C)C)C(=O)N[C@@H](CC(N)=O)C(=O)O,"Protein cereblon, with DDB1 (CRBN, Homo sapiens, UniProt Q96SW2)","binding, ligand, TR-FRET displacement",,,,IC50,5.93 µM
O=c1c2ccccc2[nH]c(=S)n1-c1ccccc1,"Pancreatic alpha-amylase (Homo sapiens, UniProt P04746)","enzyme activity, inhibitor",,,,IC50,580 ± 3.54 µM
C[C@@H](O)[C@@H](CO)NC(=O)[C@@H](CCCNC(=N)N)NC(=O)[C@@H]1CCCN1C(=O)[C@@H]1CSSC[C@H](NC(=O)[C@H](Cc2ccccc2)NC(=O)CN2CCN(CC(=O)O)CCN(CC(=O)O)CCN(CC(=O)O)CC2)C(=O)N[C@@H](Cc2ccc(O)cc2)C(=O)N[C@@H](Cc2ccccc2)C(=O)N[C@@H](CCC(N)=O)C(=O)N[C@@H](CC(N)=O)C(=O)N1 [gallium-68 labelled],,,"Wistar rat, adrenals","intravenous, 8 MBq, 120 min, group mean",,tissue uptake,0.07 %ID/g
C[C@H]1CN(c2n[nH]c3nc(N[C@H]4CC[C@H](NS(=O)(=O)CCC(F)(F)F)CC4)ncc23)CCO1,"Cyclin-dependent kinase 9 (CDK9, Homo sapiens, UniProt P50750)","competitor, Kinobeads competition","HEK293, K562, placenta extract",,,IC50,≥ 20 µM
O=P(O)(O)C(CNc1ccccc1)P(=O)(O)O,"ppk (Escherichia coli, UniProt P0A7B1)","enzyme activity, inhibitor",,,,IC50,63.6 µM and 64 µM
Nc1ncnc2c1ncn2[C@@H]1O[C@H](C[C@@H](N)CC[C@H](N)C(=O)O)[C@@H](O)[C@H]1O,"mRNA cap guanine-N(7) methyltransferase (RNMT, Homo sapiens, UniProt O43148)","enzyme activity, inhibitor",,,,IC50,9.02 µM
CCOP(=S)(OCC)SCS(=O)(=O)CC,"Acetylcholinesterase (ache, Electrophorus electricus, UniProt O42275)","enzyme activity, inhibitor",,,,IC50,2.9 ± 0.2 µM
CN(C)C(=O)C(CCN1CCC(O)(c2ccc(Cl)cc2)CC1)(c1ccccc1)c1ccccc1,"Calcium-activated potassium channel subunit alpha-1, with LRRC26 γ1 subunit (KCNMA1, Homo sapiens, UniProt Q12791)","BK channel conductance, inhibitor, inside-out patch clamp",,"BKα/γ1, Vm 100 mV, nominally Ca2+-free",,IC50,2.44 ± 0.32 µM
N=C(N)NCC(=O)O,"Protein-arginine-phosphatase (ywle, Geobacillus stearothermophilus, UniProt S0F332)",,,,,IC50,> 1000 µM
COc1c(CCC[P+](c2ccccc2)(c2ccccc2)c2ccccc2)cc2c(c1OC)OCO2.[I-],CAKI-1,SRB,,,,LC50,> -4 log M

# Excerpt of the above:
Structure (SMILES),target or system,test,system,setting,scale,measurement,value
O=S(=O)(F)Cc1ccccc1,"Pimeloyl-[acyl-carrier protein] methyl ester esterase (bioH, Escherichia coli, UniProt P13001)",inhibitor,,,,IC50,1780 µM
COc1cc(C(=O)N2CC[C@@H](O)[C@@H](N)C2)cc2nc(-c3cc4ccccc4n3CC3CC3)n(C)c12,"5-hydroxytryptamine receptor 3A (HTR3A, Homo sapiens, UniProt P46098)","intracellular calcium, antagonist, fluorescence",,,,IC50,1.26 µM
